{"data": "Measurements gathered from unrelated publications", "note": "Parts stem from different laboratories: compare values within a part only.", "chain of UniProt P47898 (whole entry, looked up)": "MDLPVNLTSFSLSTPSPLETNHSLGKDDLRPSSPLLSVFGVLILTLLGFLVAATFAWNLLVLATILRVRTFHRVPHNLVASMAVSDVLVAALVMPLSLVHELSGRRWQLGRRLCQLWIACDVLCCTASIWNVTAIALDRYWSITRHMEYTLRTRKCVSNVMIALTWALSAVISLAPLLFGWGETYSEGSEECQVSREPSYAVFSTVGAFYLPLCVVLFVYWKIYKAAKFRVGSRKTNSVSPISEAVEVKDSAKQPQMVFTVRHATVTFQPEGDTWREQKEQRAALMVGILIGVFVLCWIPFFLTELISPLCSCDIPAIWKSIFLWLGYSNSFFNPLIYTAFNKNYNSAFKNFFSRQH"}
{"data": "Set 1", "species": "mouse", "sample": "microsomes or S9", "tested at": "2 µM", "time": "0.5 h"}
{"Structure (SMILES)": "O=C(c1ccccc1)c1ccccc1C(=O)N1Cc2ccccc2C(C(=O)O)C1 (stereo not shown)", "remaining compound [%]": 92.4}
{"Structure (SMILES)": "COCCCNC(=O)C1CCC(CN(Cc2c(Cl)cccc2Cl)S(=O)(=O)c2ccc(Br)cc2)CC1 (stereo not shown)", "remaining compound [%]": 0}
{"Structure (SMILES)": "CC(C)NC(=O)NC(=O)C(C)N(C)Cc1ccccc1Br (stereo not shown)", "remaining compound [%]": 2.14}
{"data": "Set 2", "target": "Phosphate system positive regulatory protein PHO4, full length, GST-tagged (PHO4, Saccharomyces cerevisiae, UniProt P07270, residues 1-312)", "technique": "competition protein-binding microarray", "molecule type": "double-stranded DNA, one strand shown", "sample": "in vitro", "tested at": "2 µM", "notes": "whole 60-bp probe, lowest competitor level", "added": "Cbf1 competitor, 0.05 µM", "reading": "higher = stronger binding", "all sequences stand within": "… GTCTTGATTCGCTTGACGCTGCTG", "Residues (chain)": "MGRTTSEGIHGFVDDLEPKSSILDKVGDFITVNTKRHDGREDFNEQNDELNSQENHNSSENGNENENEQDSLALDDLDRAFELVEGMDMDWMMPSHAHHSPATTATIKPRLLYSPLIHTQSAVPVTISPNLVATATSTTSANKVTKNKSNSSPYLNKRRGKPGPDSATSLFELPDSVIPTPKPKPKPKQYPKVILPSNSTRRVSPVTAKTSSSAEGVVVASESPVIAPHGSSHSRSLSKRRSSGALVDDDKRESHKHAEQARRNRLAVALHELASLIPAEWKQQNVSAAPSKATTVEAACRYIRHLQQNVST"}
{"Sequence": "AGATGATACTGTTTGCACGCAAATATAGGCTTGATT", "fluorescence intensity [a.u.]": 5040}
{"Sequence": "GTCTTGTCTCATTGAATAGTGGGTGTCCCCACTTCA", "fluorescence intensity [a.u.]": 4140}
{"Sequence": "AAGGCAGAGGTTGGAAACGTGTGGAGACTCCAAATG", "fluorescence intensity [a.u.]": 11100}
{"Sequence": "ACGGGAATATGGTCTTCTGCGATAGCTAGTAGAGAA", "fluorescence intensity [a.u.]": 3970}
{"Sequence": "TGTCTGGGACCGCTTCACGGGTCCAAATTACCACTT", "fluorescence intensity [a.u.]": 4230}
{"Sequence": "CGGGGTTAAGTTTGCATGGTGGGTGGCTTGCAGCAG", "fluorescence intensity [a.u.]": 6220}
{"Sequence": "CTAGAGCCACAAAAGCACGTGCTTTGGGTGCTTTGG", "fluorescence intensity [a.u.]": 18100}
{"Sequence": "CATACCCAACCTTCTCACGTGTTTTAAGATATTTGT", "fluorescence intensity [a.u.]": 16700}
{"data": "Mixed results"}
{"Substance": "PFDN1 (Homo sapiens, UniProt O60925)", "target or system": "TUBA1A (Homo sapiens, UniProt Q71U36)", "test": "cross-linking MS", "setting": "hits only", "quantity": "interaction screen", "value": "cross-linked"}
{"Substance": "CN(C)C(=O)N1CC[C@H](N=C2Nc3cc(F)ccc3N(CC(F)F)c3ccc(Cl)cc32)C1", "target or system": "sample C colorectal tumour organoid", "setting": "0.1 µM", "scale": "relative to: DMSO", "quantity": "viability", "value": "106%"}
{"Substance": "ARID1A (Homo sapiens, UniProt O14497)", "target or system": "SMARCD2 (Homo sapiens, UniProt Q92925)", "test": "cross-linking MS", "setting": "hits only", "quantity": "interaction screen", "value": "cross-linked"}
{"Substance": "CCCCC(CC)CNC(=N)NC(=N)NCCCCCCNC(=N)NC(=N)NCC(CC)CCCC (stereo not shown)", "target or system": "mouse MPNST tumor cells", "test": "high-content nuclear imaging, item: cell number", "setting": "10 µM, 12 h, mean of 2 replicates", "scale": "relative to: plate mean, higher = more cells", "quantity": "nuclei count", "value": "-4.37 z-score"}
{"Substance": "SPTBN2 (Homo sapiens, UniProt O15020)", "target or system": "BOP1 (Homo sapiens, UniProt Q14137)", "test": "cross-linking MS", "system": "cell fractions", "setting": "added: DMTMM", "quantity": "cross-linked residues", "value": "K979 to E124"}
{"Substance": "CCc1ccccc1C(=O)Nc1n[nH]c2c(C)c(F)c(C3C(C#N)=C(C)N(C)C(C)=C3C#N)cc12", "target or system": "HTR5A (Homo sapiens, UniProt P47898)", "test": "ligand displacement", "setting": "10 µM", "quantity": "inhibition", "value": "19.9%"}
{"Substance": "EED (Homo sapiens, UniProt O75530)", "target or system": "EZH2 (Homo sapiens, UniProt Q15910)", "test": "cross-linking MS", "setting": "hits only", "quantity": "interaction screen", "value": "cross-linked"}
{"Substance": "O=C(Nc1ccccc1)N1CCN(c2nc(-c3ccccc3)ns2)CC1", "target or system": "mouse MPNST tumor cells", "test": "high-content nuclear imaging, item: cell number", "setting": "10 µM, 12 h, mean of 2 replicates", "scale": "relative to: plate mean, higher = more cells", "quantity": "nuclei count", "value": "-0.292 z-score"}
